Measured values gathered from unrelated publications.
Compare with care: the assays were run in different laboratories. ± marks the error that the study gave.
Target: Tyrosine-protein kinase BTK (BTK, Homo sapiens, UniProt Q06187)
Sequence of UniProt Q06187 (whole entry, looked up): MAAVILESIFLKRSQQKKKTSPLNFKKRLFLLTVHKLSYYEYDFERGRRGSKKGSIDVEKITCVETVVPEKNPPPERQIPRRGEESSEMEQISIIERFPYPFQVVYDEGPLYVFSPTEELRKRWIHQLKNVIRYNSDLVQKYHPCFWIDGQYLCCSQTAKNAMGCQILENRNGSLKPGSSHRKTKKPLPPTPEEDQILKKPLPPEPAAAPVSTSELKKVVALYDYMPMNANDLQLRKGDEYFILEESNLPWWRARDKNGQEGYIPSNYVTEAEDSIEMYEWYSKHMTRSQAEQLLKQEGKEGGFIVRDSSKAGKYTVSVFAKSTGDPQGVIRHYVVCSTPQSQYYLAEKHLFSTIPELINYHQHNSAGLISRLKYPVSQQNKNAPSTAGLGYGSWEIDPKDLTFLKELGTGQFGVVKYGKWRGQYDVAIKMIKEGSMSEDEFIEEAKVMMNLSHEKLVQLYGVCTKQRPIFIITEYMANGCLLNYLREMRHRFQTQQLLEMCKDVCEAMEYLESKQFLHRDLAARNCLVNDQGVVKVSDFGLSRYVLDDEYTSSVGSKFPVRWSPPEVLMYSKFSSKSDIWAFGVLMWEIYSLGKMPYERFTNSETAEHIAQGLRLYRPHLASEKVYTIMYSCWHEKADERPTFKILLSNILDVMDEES

SMILES = Nc1ncnc2c1c(-c1ccc(Oc3ccccc3)cc1)nn2C1CCCN(C(=O)C2CC(Br)=NO2)C1 (mixture of isomers); assay = enzyme activity, inhibitor; measurement = IC50; value = 17 nM
SMILES = N=C(N)NCCC[C@@H]1NC(=O)[C@H](Cc2c[nH]c3ccccc23)NC(=O)[C@H](CCCNC(=N)N)NC(=O)[C@H](Cc2c[nH]c3ccccc23)NC(=O)[C@H](CCCNC(=N)N)NC(=O)[C@H](Cc2c[nH]c3ccccc23)NC(=O)[C@H](CCCNC(=N)N)NC(=O)[C@H](Cc2c[nH]c3ccccc23)NC(=O)[C@H](CCCNC(=N)N)NC(=O)[C@H](Cc2c[nH]c3ccccc23)NC(=O)[C@H](CCCNC(=N)N)NC(=O)[C@H](Cc2c[nH]c3ccccc23)NC1=O; assay = enzyme activity, inhibitor; measurement = IC50; value = < 250 nM
SMILES = COc1ccc(Nc2nc(Nc3ccc(OC)c(OC)c3)c3[nH]cnc3n2)cc1OC; assay = binding, ITC; measurement = Kd; value = 1000 nM
SMILES = N=C(N)NCCC[C@@H]1NC(=O)[C@H](Cc2c[nH]c3ccccc23)NC(=O)[C@H](CCCNC(=N)N)NC(=O)[C@H](Cc2c[nH]c3ccccc23)NC(=O)[C@H](CCCNC(=N)N)NC(=O)[C@H](Cc2c[nH]c3ccccc23)NC(=O)[C@H](CCCNC(=N)N)NC(=O)[C@H](Cc2c[nH]c3ccccc23)NC(=O)[C@H](CCCNC(=N)N)NC(=O)[C@H](Cc2c[nH]c3ccccc23)NC(=O)[C@H](CCCNC(=N)N)NC(=O)[C@H](Cc2c[nH]c3ccccc23)NC(=O)[C@H](CCCNC(=N)N)NC(=O)[C@H](Cc2c[nH]c3ccccc23)NC1=O; assay = enzyme activity, inhibitor; measurement = IC50; value = < 250 nM
SMILES = CC1=CC(C)=[N+]2C1=Cc1ccc(CCC(=O)NCCCN(C)CCCC(=O)N3CCC[C@@H](n4nc(-c5ccc(Oc6ccccc6)cc5)c5c(N)ncnc54)C3)n1[B-]2(F)F; assay = binding, TR-FRET; measurement = Kd; value = 155 nM
SMILES = N#CCC(=O)N1CCC[C@H]1Cn1nc(-c2ccc(Oc3ccccc3)cc2F)c2c(N)ncnc21; assay = enzyme activity, inhibitor; conditions = 15 min preincubation, together with: ATP 16 µM; measurement = IC50; value = 170 ± 50 nM
SMILES = C=CC(=O)Nc1cccc(Cn2ncc3cnc(Nc4cnn(CCOC)c4)nc32)c1; assay = enzyme activity, inhibitor, FRET; measurement = IC50; value = 4.42 nM
SMILES = CN(CC#CC(=O)N1CCC(n2c(=O)n(-c3ccc(Oc4ccccc4)cc3)c3c(N)ncnc32)C1)CCCCNC(=O)CCCC(=O)NCCCOCCOCCOCCCNC(=O)CCCCC1SCC2NC(=O)NC21 (stereo not drawn); assay = enzyme activity, inhibitor, TR-FRET; conditions = together with: 40 µM ATP; measurement = IC50; value = 4.7 nM
SMILES = CN(C(=O)c1ccn2ncc(-c3ccc(C(N)=O)cc3)c2c1)c1ccc(C#N)cn1; assay = enzyme activity, inhibitor; measurement = IC50; value = > 10000 nM

Some of these lines once more:
SMILES = C=CC(=O)Nc1cccc(Cn2ncc3cnc(Nc4cnn(CCOC)c4)nc32)c1; assay = enzyme activity, inhibitor, FRET; measurement = IC50; value = 4.42 nM
